Measured values of several laboratories.
Compare with care: the assays were run in different laboratories.

Structure (SMILES)	species	medium	route	dose	setting	Tmax [min]
CN1CCC[C@@H]1C(=O)N[C@@H](Cc1ccc(-c2ccccc2)cc1)B(O)O	male Sprague-Dawley rat	plasma	oral	1 mg/kg	–	18
CCOP(=O)(CC(=O)Nc1ccc(S(=O)(=O)N(CC(N)=O)c2ccc(N(CC(N)=O)S(=O)(=O)c3ccc(OC)cc3)c3ccccc23)cc1)OCC	male Wistar rat	plasma	oral	28 mg/kg	single dose	47.5
OCC1OC(n2cnc3c(NCc4ccc(Br)s4)ncnc32)C(O)C1O (centres unmarked)	male Sprague-Dawley rat	blood	oral	10 mg/kg	–	42 to 78
CCC(CC)n1c(Cc2ccco2)nc2cc(C(=O)N[C@@H](CC(=O)O)c3ccccc3)ccc21	male Sprague-Dawley rat	plasma	intraperitoneal	10 mg/kg	–	30
COCCN(C)CC(=O)NC(Cc1ccc(-c2ccccc2)cc1)B(O)O (centres unmarked)	rat	plasma	oral	1 mg/kg	–	18
Cc1cc2c(cc1O)C=C1C=CC(=O)C(C)(C)[C@H]1CC2	male Sprague-Dawley rat	plasma	oral	20 mg/kg	–	4.8
CCC(CC)n1c(Cc2cccs2)nc2cc(C(=O)N[C@@H](CC(=O)O)c3ccccc3)ccc21	male Sprague-Dawley rat	plasma	intravenous	1 mg/kg	–	4.8
COC1C(c2ccc(Cl)c(Cc3ccc(OC4CCOC4)cc3)c2)OC(CO)C(O)C1O (centres unmarked)	Sprague-Dawley rat	plasma	intravenous	2.5 mg/kg	–	4.8
OC1(C(F)(F)F)CCN(c2nc(Nc3ccnc(C(F)(F)F)c3)nc(-c3cccc(C(F)(F)F)n3)n2)C1 (centres unmarked)	Sprague-Dawley rat	plasma	oral	20 mg/kg	–	360
C/C(N)=N/C(=N\S(=O)(=O)c1ccc(C(F)(F)F)cc1)N1C[C@H](c2ccccc2)C(c2ccc(Cl)cc2)=N1	male Sprague-Dawley rat	plasma	oral	3 mg/kg	–	120
C=C(NC(=O)c1csc(-c2nc3c(cc2O)-c2nc(cs2)C(=O)NC(C(C)O)C(=O)NC(=C(C)OC)c2nc(cs2)C(=O)NC2c4nc(cs4)C(=O)NC(COC(=O)c4c5c6c(cccc6n4O)COC(=O)C(OC4CC(C)(O)C(N(C)C)C(C)O4)C2OC5)c2nc-3cs2)n1)C(N)=O (centres unmarked)	female Sprague-Dawley rat	plasma	intravenous	2 mg/kg	single dose, infusion	4.8
O=C(O)c1c(O)cc(O[C@@H]2O[C@H](CO)[C@@H](O)[C@H](O)[C@H]2O)cc1/C=C/c1ccccc1	male Sprague-Dawley rat	plasma	oral	5 mg/kg	–	12.5
CC(=O)O[C@@H]1CC[C@@]2(C)[C@@H](CC[C@]3(C)[C@@H]2C(=O)C=C2[C@@H]4[C@@H](C)[C@H](C)CC[C@]4(C)CC[C@]23C)[C@@]1(C)C(=O)O	female Wistar rat	plasma	oral	1 mg/kg	–	360
CC(=Nc1ccc(N)cc1)N(C)C	male Sprague-Dawley rat	plasma	intravenous	20 mg/kg	–	4.98

For quick reference, copied from above:
Structure (SMILES)	species	medium	route	dose	setting	Tmax [min]
CCOP(=O)(CC(=O)Nc1ccc(S(=O)(=O)N(CC(N)=O)c2ccc(N(CC(N)=O)S(=O)(=O)c3ccc(OC)cc3)c3ccccc23)cc1)OCC	male Wistar rat	plasma	oral	28 mg/kg	single dose	47.5
OCC1OC(n2cnc3c(NCc4ccc(Br)s4)ncnc32)C(O)C1O (centres unmarked)	male Sprague-Dawley rat	blood	oral	10 mg/kg	–	42 to 78
